{"data": "Experimental data pooled from the literature", "organism": "Staphylococcus aureus", "note": "Lines come from different studies, so protocols differ. pIC50: −log10 of the molar value."}
{"SMILES": "N=C(N)NCCC[C@@H]1NC(=O)[C@H](CCCNC(=N)N)NC(=O)[C@H](CCCNC(=N)N)NC(=O)[C@H](Cc2ccc3ccccc3c2)NC(=O)[C@H](Cc2c[nH]c3ccccc23)NC(=O)[C@H](Cc2ccc3ccccc3c2)NC(=O)[C@H](CCCNC(=N)N)NC1=O", "assay": "XTT", "system": "MRSA ATCC BAA-1556", "conditions": "MIC", "how to read": "reference: untreated", "endpoint": "biofilm reduction", "value": "40 to 45%"}
{"SMILES": "CCN(CC)CCn1nc(C23CC4CC(CC(C4)C2)C3)n(C)c1=S", "system": "IFO 3060", "conditions": "200 µg/disc, 24 h, 37 °C", "endpoint": "inhibition zone diameter", "value": "19 mm"}
{"SMILES": "CN(C)c1cc(CN2CCCCC2)c(O)c2c1C[C@H]1C[C@H]3[C@H](N(C)C)C(O)=C(C(N)=O)C(=O)[C@@]3(O)C(O)=C1C2=O", "system": "MRSA 5 tetM, mouse thigh infection model", "conditions": "sc, 20 mg/kg, 24 h", "how to read": "reference: untreated control", "endpoint": "log10 CFU reduction", "value": "2.49 to 3.11 log10"}
{"SMILES": "COc1ccc2c3c(oc2c1CC=C(C)C)-c1cc(CC=C(C)C)c(O)cc1OC3", "system": "ATCC 25923", "conditions": "concentration not given", "endpoint": "antibacterial activity", "value": "inactive"}
{"SMILES": "CC(C)C[C@H](NC(=O)[C@H](CC(N)=O)NC(=O)[C@H](CCCNC(=N)N)NC(=O)[C@@H](CC(C)C)NC(=O)[C@H](Cc1ccc(-c2ccccc2)cc1)NC(=O)[C@H](CC(=O)O)NC(=O)[C@H](CCCCN)NC(=O)[C@@H](CC(C)C)NC(=O)[C@H](CCCNC(=N)N)NC(=O)[C@H](CCC(N)=O)NC(=O)[C@@H](NC(=O)[C@@H](CC(C)C)NC(=O)[C@H](CCCNC(=N)N)NC(=O)[C@H](CCCCN)NC(=O)[C@H](Cc1ccc(-c2ccccc2)cc1)NC(=O)CN)C(C)C)C(=O)N[C@H](C(N)=O)C(C)C", "system": "USA300 LAC, Galleria mellonella larvae", "conditions": "64 mg/kg, day 5, dosed 2 h before infection", "endpoint": "survival", "value": "83%"}
{"SMILES": "Cc1c(CN(C)C(=O)/C=C/c2cnc3c(c2)CC(N)C(=O)N3)oc2ccccc12 (centres unmarked)", "system": "ATCC 29213", "conditions": "with: human serum", "how to read": "reference: without serum", "endpoint": "MIC fold increase", "value": "2 fold"}
{"SMILES": "O=[N+]([O-])c1ccc2c(c1)C=[N+]1N3C(=[O+][Cu-2]1([Cl])[O]2)c1ccccc1NC3c1cc([N+](=O)[O-])ccc1O (centres unmarked)", "assay": "respiratory activity, inhibitor, MTT", "system": "ATCC 29213", "conditions": "concentration not given", "how to read": "at least 70% inhibition", "endpoint": "lowest effective concentration", "value": "0.5 × MIC"}
{"SMILES": "COc1ccccc1C(=O)Oc1cccccc1=O", "assay": "time-kill", "system": "ATCC 29213", "conditions": "16 x MIC80, 24 h", "endpoint": "reduction in viable count", "value": "2 log10 CFU"}
{"SMILES": "CN[C@H](CC(C)C)C(=O)N[C@H]1C(=O)N[C@@H](CC(N)=O)C(=O)N[C@H]2C(=O)N[C@H]3C(=O)N[C@H](C(=O)N[C@H](C(=O)O)c4cc(O)cc(O)c4-c4cc3ccc4O)[C@H](O)c3ccc(c(Cl)c3)Oc3cc2cc(c3O[C@@H]2O[C@H](CO)[C@@H](O)[C@H](O)[C@H]2O[C@H]2C[C@](C)(NCc3ccc(C(=O)OCCCCCCN(Cc4ccccn4)Cc4ccccn4)cc3)[C@H](O)[C@H](C)O2)Oc2ccc(cc2Cl)[C@H]1O", "system": "MRSA exponential phase", "conditions": "2 and 4 × MIC, 12 h", "endpoint": "viable count reduction", "value": "5.4 log CFU/mL"}
{"SMILES": "CCCCCCCCCCCCCCCC(=O)N[C@@H](CCN)C(=O)N[C@H](C(=O)N[C@@H](CCN)C(=O)N[C@H]1CCNC(=O)[C@H]([C@@H](C)O)NC(=O)[C@H](CCN)NC(=O)[C@H](CCN)NC(=O)[C@H](CC(C)C)NC(=O)[C@@H](CC(C)C)NC(=O)[C@H](CCN)NC1=O)[C@@H](C)O", "system": "MRSA, neutropenic mice, thigh infection, thigh", "conditions": "iv, 5 mg/kg twice, 12 h apart", "endpoint": "CFU reduction", "value": "4 log10 CFU"}
{"SMILES": "O=C(CCc1cc(O)c(O)c(O)c1)NCCCCCCCCCC[P+](c1ccccc1)(c1ccccc1)c1ccccc1", "assay": "propidium iodide uptake", "system": "XU212", "conditions": "2 x MIC, 1 h", "endpoint": "cells with damaged membrane", "value": "44.7%"}
{"SMILES": "Cc1cc([N+](=O)[O-])ccc1NC(=O)CSc1nc2ccccc2c(=O)n1-c1ccc(S(N)(=O)=O)cc1", "assay": "microbial killing", "system": "ATCC29 ATCC29213", "conditions": "24 h", "endpoint": "MBC", "value": "1.17 µg/mL"}
{"SMILES": "CCCCCC1CC2CCCC3CC(C)N=C(N1)N32 (centres unmarked)", "assay": "bacterial growth", "system": "MRSA ATCC 33591", "endpoint": "pIC50", "value": 5.15}
{"SMILES": "CNC(CC(C)C)C(=O)NC1C(=O)NC(CC(N)=O)C(=O)NC2C(=O)NC3C(=O)NC(C(=O)NC(C(=O)O)c4cc(O)cc(O)c4-c4cc3ccc4O)C(O)c3ccc(c(Cl)c3)Oc3cc2cc(c3OC2OC(CO)C(O)C(O)C2OC2CC(C)(NC(=O)CCCCCCCCC[N+]3(C)CCOCC3)C(O)C(C)O2)Oc2ccc(cc2Cl)C1O (centres unmarked)", "assay": "agar dilution", "system": "MRSA3", "how to read": "reference: vancomycin, higher = more active", "endpoint": "MIC fold improvement", "value": "8 fold"}
{"SMILES": "N=C(N)NCCC[C@H](NC(=O)[C@H](Cc1c[nH]c2ccccc12)NC(=O)[C@H](CCC(N)=O)NC(=O)[C@H](Cc1c[nH]c2ccccc12)NC(=O)[C@H](CCCNC(=N)N)NC(=O)[C@@H](N)CCCNC(=N)N)C(=O)NCCCC[C@H](NC(=O)[C@H](CCCNC(=N)N)NC(=O)[C@H](Cc1c[nH]c2ccccc12)NC(=O)[C@H](CCC(N)=O)NC(=O)[C@H](Cc1c[nH]c2ccccc12)NC(=O)[C@H](CCCNC(=N)N)NC(=O)[C@@H](N)CCCNC(=N)N)C(=O)NCCCCCC(=O)N[C@@H](CSSC[C@H](NC(=O)CCCCCNC(=O)[C@H](CCCCNC(=O)[C@H](CCCNC(=N)N)NC(=O)[C@H](Cc1c[nH]c2ccccc12)NC(=O)[C@H](CCC(N)=O)NC(=O)[C@H](Cc1c[nH]c2ccccc12)NC(=O)[C@H](CCCNC(=N)N)NC(=O)[C@@H](N)CCCNC(=N)N)NC(=O)[C@H](CCCNC(=N)N)NC(=O)[C@H](Cc1c[nH]c2ccccc12)NC(=O)[C@H](CCC(N)=O)NC(=O)[C@H](Cc1c[nH]c2ccccc12)NC(=O)[C@H](CCCNC(=N)N)NC(=O)[C@@H](N)CCCNC(=N)N)C(N)=O)C(N)=O", "assay": "time-kill", "system": "ATCC 25923", "conditions": "88 µM", "endpoint": "time to bactericidal effect", "value": "48 h"}
{"SMILES": "CCc1cccc(NC(=O)CSc2nc3ccccc3c(=O)n2-c2ccc(S(N)(=O)=O)cc2)c1", "assay": "microbial growth, well diffusion", "system": "ATCC29213", "conditions": "500 µg/mL, 24 h", "endpoint": "inhibition zone", "value": "12 mm"}
{"SMILES": "O=C(O)CN1C(=O)/C(=C/c2ccc(-c3ccc(N(c4ccccc4)c4ccccc4)cc3)cc2)NC1=S", "assay": "broth microdilution", "system": "ATCC 6538", "endpoint": "MBC/MIC ratio", "value": 2}
{"SMILES": "Cc1c2c(cc3oc(=O)cc(-c4ccc(Cl)cc4)c13)C(=O)c1cccc(O)c1C2=O", "assay": "microbial growth, disc diffusion", "system": "MTCC96", "conditions": "100 µg/disc", "endpoint": "inhibition zone", "value": "8 mm"}
{"SMILES": "Oc1c(Br)cc(Br)c2nc3cc(C(F)(F)F)ccc3nc12", "assay": "Calgary Biofilm Device", "system": "MRSA 1707", "conditions": "biofilm", "endpoint": "MBEC", "value": "6.25 µM"}
{"SMILES": "C=C(C)C(=O)NCCCCCCCCCCOCc1cn(CCCCCCCCCCNC(=O)C(=C)C)n[n+]1C", "assay": "microbial growth, absorbance", "conditions": "24 h", "endpoint": "pIC50", "value": 4.67}
{"SMILES": "CN1/C(=C/C=C/c2cc(-c3ccccc3)cc(-c3ccccc3)[o+]2)C(C)(C)c2ccccc21", "assay": "cell wall synthesis", "system": "NCTC 8325", "conditions": "with: reserpine 20 µg/mL", "endpoint": "IC50", "value": "0.19 µg/mL"}
{"SMILES": "CC(C)C[C@H](NC(=O)[C@H](CC(N)=O)NC(=O)[C@H](CCCNC(=N)N)NC(=O)[C@@H](CC(C)C)NC(=O)[C@H](Cc1ccc(-c2ccccc2)cc1)NC(=O)[C@H](CC(=O)O)NC(=O)[C@H](CCCCN)NC(=O)[C@@H](CC(C)C)NC(=O)[C@H](CCCN)NC(=O)[C@H](CCC(N)=O)NC(=O)[C@@H](NC(=O)[C@@H](CC(C)C)NC(=O)[C@H](CCCNC(=N)N)NC(=O)[C@H](CCCCN)NC(=O)[C@H](Cc1ccc(-c2ccccc2)cc1)NC(=O)CN)C(C)C)C(=O)N[C@H](C(N)=O)C(C)C", "assay": "XTT", "system": "USA300", "conditions": "24 h, 24 h preformed biofilm", "endpoint": "biofilm disruption concentration", "value": "12.5 µM"}
{"SMILES": "CCCCCCCCCCCCCC(=O)N[C@@H](CCCCN)C(=O)N[C@@H](CCCCN)C(N)=O", "assay": "XTT", "system": "UAMS-1", "conditions": "6.25 µM", "endpoint": "biofilm disruption", "value": "93%"}
{"note": "A few entries again:"}
{"SMILES": "CCN(CC)CCn1nc(C23CC4CC(CC(C4)C2)C3)n(C)c1=S", "system": "IFO 3060", "conditions": "200 µg/disc, 24 h, 37 °C", "endpoint": "inhibition zone diameter", "value": "19 mm"}
{"SMILES": "CN1/C(=C/C=C/c2cc(-c3ccccc3)cc(-c3ccccc3)[o+]2)C(C)(C)c2ccccc21", "assay": "cell wall synthesis", "system": "NCTC 8325", "conditions": "with: reserpine 20 µg/mL", "endpoint": "IC50", "value": "0.19 µg/mL"}
